Assay results pooled from the literature.
Compare with care: the assays were run in different laboratories. “And” joins repeats or separate records; there may be more than shown.
Target: Dual specificity mitogen-activated protein kinase kinase 6 (MAP2K6, Homo sapiens, UniProt P52564)

| Structure (SMILES) | assay | setting | how to read | quantity | value |
| --- | --- | --- | --- | --- | --- |
| COc1c(Cl)cccc1Nc1c(-c2ccncc2C#C[C@@]2(C)CCCN2C(=O)/C=C/CN(C)C)[nH]c2c1C(=O)NCC2 | binding, competition with immobilised ligand | 3 µM |  | remaining binding | 70% |
| CN1CCN(Cc2ccc(-c3ccc(CO[C@H]4CCC[C@@H]4NC(=O)c4cc(-c5cnn(C)c5)cnc4N)cc3)cc2)CC1 | enzyme activity, inhibitor | 0.1 µM |  | inhibition | 9% and 3% |
| CNC(=O)C1CCN(c2cc(C)c(F)cc2NC(=O)c2ccc(-c3cc(O)ccc3C)c(C)c2)CC1 | binding, competition with immobilised ligand | 1 µM |  | remaining binding | 100% |
| CNC(=O)C[C@H](Cc1ccc(C#N)cc1)NC(=O)c1cc(-c2ccc(CN[C@H](C)c3ccc(C)cc3)o2)ccc1Cl | enzyme activity, inhibitor | 1 µM |  | activity vs control | 92% |
| CN1CC[C@@H](COc2cnc(C#N)cc2-c2ccn3nc(NC(=O)C4CC4)cc3c2)C1 | enzyme activity, inhibitor | 1 µM |  | inhibition | 33% |
| Nc1ncc(-c2cc(-c3cnn(CC(F)(F)F)c3)ncc2F)nc1C(=O)NC1CNCC(F)C1 (stereo not drawn) | enzyme activity | 1 µM | reference: DMSO control | remaining activity | 92% |
| Cc1ccc(-c2c(/C=C(\C#N)C(=O)NC(C)C)n(CCCO)c3ncnc(N)c23)cc1 | cell-free assay, competition with immobilised ligand | 1 µM |  | remaining binding | 100% |
| C=CC(=O)N1CCCC(n2c(=O)c3ncccc3n(Cc3ccc(Oc4ccccc4)cc3)c2=O)C1 (stereo not drawn) | cell-free assay, competition with immobilised ligand | 1 µM |  | remaining binding | 100% |
| Cc1cnc2nc1Nc1cccc(c1)COC/C=C/COCc1cc(ccc1OCCN1CCOCC1)N2 | binding, competition with immobilised ligand | 0.1 µM |  | remaining binding | 100% |
| O=C=[N][Ru-4]123([n]4c5ccc(O)cc5c5c6c(c7cc(F)c[n+]1c7c54)C(=O)NC6=O)[S+]1CC[S+]2CC[S+]3CC1 (stereo not drawn) | enzyme activity | 100 nM, human enzyme, together with: 10 µM ATP | reference: untreated | remaining activity | 115% |
| COc1cc(Nc2nc(C)cc(-c3cnn4nc(OC)ccc34)n2)cc(C(F)(F)F)c1 | inhibitor | 1 µM, MEK6 | reference: control | remaining activity | 100% |
| NC(=O)[C@@H](O)C[C@H]1CCc2sc3ncnc(O[C@H]4CC[C@H](N5CCOCC5)CC4)c3c21 | enzyme activity, inhibitor | 10 µM |  | inhibition | 11% |

A few entries again:
| Structure (SMILES) | assay | setting | how to read | quantity | value |
| --- | --- | --- | --- | --- | --- |
| CN1CC[C@@H](COc2cnc(C#N)cc2-c2ccn3nc(NC(=O)C4CC4)cc3c2)C1 | enzyme activity, inhibitor | 1 µM |  | inhibition | 33% |
| NC(=O)[C@@H](O)C[C@H]1CCc2sc3ncnc(O[C@H]4CC[C@H](N5CCOCC5)CC4)c3c21 | enzyme activity, inhibitor | 10 µM |  | inhibition | 11% |
